Experimental data collected from several papers.
Numbered parts are unrelated; each lists some results of a single study.
Chain of UniProt O95382 (whole entry, looked up): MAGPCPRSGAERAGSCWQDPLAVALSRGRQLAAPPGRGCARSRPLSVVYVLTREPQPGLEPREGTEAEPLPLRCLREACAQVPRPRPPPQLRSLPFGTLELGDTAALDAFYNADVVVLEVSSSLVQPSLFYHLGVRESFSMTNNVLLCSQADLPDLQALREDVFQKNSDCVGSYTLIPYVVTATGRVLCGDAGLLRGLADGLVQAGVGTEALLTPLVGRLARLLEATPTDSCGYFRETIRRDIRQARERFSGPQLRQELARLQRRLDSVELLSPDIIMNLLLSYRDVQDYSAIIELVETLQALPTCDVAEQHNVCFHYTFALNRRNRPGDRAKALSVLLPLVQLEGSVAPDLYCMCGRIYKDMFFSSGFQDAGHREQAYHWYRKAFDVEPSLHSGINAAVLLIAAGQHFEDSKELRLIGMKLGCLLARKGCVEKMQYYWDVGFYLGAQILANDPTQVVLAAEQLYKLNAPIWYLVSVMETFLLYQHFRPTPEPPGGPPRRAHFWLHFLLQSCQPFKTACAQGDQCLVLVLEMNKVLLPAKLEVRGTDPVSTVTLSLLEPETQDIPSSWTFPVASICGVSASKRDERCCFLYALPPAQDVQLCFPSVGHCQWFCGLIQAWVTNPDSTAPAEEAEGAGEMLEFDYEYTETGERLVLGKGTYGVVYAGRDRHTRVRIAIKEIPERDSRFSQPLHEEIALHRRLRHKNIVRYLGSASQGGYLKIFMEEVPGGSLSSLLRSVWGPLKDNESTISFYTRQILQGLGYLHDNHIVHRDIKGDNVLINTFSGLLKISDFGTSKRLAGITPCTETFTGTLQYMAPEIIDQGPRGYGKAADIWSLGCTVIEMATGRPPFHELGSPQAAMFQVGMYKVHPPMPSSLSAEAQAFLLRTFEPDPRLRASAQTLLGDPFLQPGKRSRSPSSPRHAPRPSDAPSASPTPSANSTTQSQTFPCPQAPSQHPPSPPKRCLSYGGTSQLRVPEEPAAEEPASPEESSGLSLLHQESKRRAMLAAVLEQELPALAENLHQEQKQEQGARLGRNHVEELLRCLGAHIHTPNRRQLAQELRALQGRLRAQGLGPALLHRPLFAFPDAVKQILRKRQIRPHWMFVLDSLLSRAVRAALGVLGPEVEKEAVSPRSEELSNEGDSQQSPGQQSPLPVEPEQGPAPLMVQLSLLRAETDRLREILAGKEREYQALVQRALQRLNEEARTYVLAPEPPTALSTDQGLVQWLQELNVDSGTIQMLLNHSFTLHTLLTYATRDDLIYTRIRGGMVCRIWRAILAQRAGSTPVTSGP
Chain of UniProt P42336 (whole entry, unmodified, looked up): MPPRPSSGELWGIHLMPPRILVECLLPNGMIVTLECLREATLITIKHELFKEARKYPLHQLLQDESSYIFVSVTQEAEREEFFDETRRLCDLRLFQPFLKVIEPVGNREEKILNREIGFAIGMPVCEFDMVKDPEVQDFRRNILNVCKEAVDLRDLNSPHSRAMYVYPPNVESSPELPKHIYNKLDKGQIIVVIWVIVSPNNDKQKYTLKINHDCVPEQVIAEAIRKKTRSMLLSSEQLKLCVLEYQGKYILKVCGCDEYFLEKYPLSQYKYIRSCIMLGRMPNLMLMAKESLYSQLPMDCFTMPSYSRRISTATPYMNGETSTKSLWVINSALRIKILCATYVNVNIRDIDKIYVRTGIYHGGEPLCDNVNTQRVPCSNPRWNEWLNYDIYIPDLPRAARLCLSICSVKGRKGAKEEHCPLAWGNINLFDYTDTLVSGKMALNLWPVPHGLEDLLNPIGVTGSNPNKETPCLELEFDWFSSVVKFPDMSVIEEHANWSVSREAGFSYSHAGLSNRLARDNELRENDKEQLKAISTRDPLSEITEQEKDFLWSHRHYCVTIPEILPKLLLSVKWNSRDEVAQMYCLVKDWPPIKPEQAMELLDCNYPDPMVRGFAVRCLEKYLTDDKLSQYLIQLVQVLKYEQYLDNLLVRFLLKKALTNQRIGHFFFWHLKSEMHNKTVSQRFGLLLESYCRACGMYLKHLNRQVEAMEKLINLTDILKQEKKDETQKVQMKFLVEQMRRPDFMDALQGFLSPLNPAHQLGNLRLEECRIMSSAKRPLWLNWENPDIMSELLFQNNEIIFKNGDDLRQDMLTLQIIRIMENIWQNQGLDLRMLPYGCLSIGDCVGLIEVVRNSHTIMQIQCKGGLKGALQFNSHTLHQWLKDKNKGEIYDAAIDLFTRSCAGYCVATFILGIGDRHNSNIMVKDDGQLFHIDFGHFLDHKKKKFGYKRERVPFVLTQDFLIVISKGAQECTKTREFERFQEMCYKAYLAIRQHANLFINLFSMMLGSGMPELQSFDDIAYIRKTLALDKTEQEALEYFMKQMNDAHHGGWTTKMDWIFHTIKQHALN
Chain of UniProt P51956 (whole entry, looked up): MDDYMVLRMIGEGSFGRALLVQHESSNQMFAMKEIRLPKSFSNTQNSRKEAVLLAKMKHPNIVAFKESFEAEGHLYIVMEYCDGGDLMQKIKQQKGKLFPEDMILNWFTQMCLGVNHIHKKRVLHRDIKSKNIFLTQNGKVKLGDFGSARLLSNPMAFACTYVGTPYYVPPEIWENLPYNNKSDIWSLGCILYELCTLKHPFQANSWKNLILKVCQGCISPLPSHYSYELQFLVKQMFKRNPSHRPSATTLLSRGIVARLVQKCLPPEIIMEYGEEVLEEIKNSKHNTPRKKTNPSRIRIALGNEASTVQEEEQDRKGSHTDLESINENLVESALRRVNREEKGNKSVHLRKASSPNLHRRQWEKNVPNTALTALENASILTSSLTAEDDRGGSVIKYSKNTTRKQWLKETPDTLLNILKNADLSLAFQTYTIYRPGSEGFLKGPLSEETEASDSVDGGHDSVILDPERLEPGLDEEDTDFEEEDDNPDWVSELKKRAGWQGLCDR
Chain of UniProt Q15208 (whole entry, looked up): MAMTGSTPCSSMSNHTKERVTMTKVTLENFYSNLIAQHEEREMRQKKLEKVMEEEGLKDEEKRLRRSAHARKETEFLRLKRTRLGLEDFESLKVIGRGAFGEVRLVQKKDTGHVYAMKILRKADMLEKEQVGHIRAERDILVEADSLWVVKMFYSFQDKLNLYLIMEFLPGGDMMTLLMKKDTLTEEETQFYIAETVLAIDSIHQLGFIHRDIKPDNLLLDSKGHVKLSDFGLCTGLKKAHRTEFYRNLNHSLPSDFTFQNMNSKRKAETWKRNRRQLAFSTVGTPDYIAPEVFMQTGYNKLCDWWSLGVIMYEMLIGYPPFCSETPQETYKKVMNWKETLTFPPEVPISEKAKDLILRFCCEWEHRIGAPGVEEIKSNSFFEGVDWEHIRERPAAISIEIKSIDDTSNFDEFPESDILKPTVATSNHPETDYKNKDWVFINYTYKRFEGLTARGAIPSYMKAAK

Block 1
SMILES: CCCCC(=O)Nc1ccc(-c2ccc3ncn(CCC)c(=O)c3c2)cn1
Read-out: binding
Technique: competition with immobilised ligand
Tested at: 0.5 µM
target	remaining binding
STK38 (Homo sapiens, UniProt Q15208)	100%
Macrophage colony-stimulating factor 1 receptor, autoinhibited (CSF1R, Homo sapiens, UniProt P07333)	100%
PIK3CA (Homo sapiens, UniProt P42336, E545K)	63%
MAP3K6 (Homo sapiens, UniProt O95382)	100%

Single results of other studies
FGFR4: Fibroblast growth factor receptor 4 (FGFR4, Homo sapiens, UniProt P22455)
Chain of UniProt P22455 (whole entry, looked up): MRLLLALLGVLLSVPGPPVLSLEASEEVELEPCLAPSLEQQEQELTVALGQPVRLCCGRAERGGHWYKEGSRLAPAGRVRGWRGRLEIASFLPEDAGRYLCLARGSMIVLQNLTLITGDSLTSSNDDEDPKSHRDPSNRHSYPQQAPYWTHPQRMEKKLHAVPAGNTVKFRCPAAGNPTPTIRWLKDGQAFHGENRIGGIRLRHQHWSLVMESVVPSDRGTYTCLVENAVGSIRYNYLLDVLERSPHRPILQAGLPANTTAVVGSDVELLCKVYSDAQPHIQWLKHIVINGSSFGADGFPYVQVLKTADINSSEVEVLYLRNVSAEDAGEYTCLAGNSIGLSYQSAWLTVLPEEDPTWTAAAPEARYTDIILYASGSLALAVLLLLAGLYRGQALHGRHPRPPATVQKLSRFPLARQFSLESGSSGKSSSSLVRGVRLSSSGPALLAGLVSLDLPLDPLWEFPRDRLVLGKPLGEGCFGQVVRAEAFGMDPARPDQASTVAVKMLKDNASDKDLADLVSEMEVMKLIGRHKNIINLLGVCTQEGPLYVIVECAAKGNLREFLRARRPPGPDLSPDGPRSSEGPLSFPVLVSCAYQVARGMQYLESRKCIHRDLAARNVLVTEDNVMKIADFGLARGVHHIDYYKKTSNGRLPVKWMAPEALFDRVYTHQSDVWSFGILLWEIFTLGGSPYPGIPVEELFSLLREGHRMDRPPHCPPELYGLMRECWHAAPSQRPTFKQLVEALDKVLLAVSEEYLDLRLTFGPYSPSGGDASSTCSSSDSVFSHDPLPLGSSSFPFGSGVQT
Compound	target	test	conditions	endpoint	result
C=CC(=O)N1CCC(COCC(=O)N2CCN(c3nc(-c4cnc(N)nc4C(F)F)nc(N4CCOC[C@@H]4C)n3)CC2)CC1	FGFR4	binding, competition with immobilised ligand	1 µM	remaining binding	97%
CNc1ncc2c(/C=C/C(=O)N3CCC(OC)CC3)nn(Cc3cccc(C(F)(F)F)c3)c2n1	FGFR4	enzyme activity, inhibitor, radiometric	1 µM	remaining activity	91%
COc1cc(-c2cncc3c2CN(C)Cc2cc(N4CCNCC4)ccc2-3)cc(OC)c1OC	NEK3 (Homo sapiens, UniProt P51956)	enzyme activity, inhibitor	1 µM	remaining activity	100%
Cc1cc([C@@H](C)Nc2ccccc2C(=O)O)c2nc(N3CCC(F)(F)CC3)c(C#N)c(=O)n2c1	SRC (Homo sapiens, UniProt P12931)	binding, competition with immobilised ligand	10 µM	remaining binding	93%

For quick reference, copied from above (single results of other studies):
Compound	target	test	conditions	endpoint	result
CNc1ncc2c(/C=C/C(=O)N3CCC(OC)CC3)nn(Cc3cccc(C(F)(F)F)c3)c2n1	FGFR4	enzyme activity, inhibitor, radiometric	1 µM	remaining activity	91%
